Published values of several laboratories.
Each numbered part is a random draw from the data of one study; scales do not carry over between parts.

Study 1
Target: RING finger protein unkempt homolog, zinc fingers 1-6, GST-SBP tag (UNK, Homo sapiens, UniProt Q9C0B0, residues 30-357)
Method: RNA Bind-n-Seq
Form: RNA
Medium: in vitro
Tested at: not given
Notes: RNA with constant flanks, ends assumed
Reference: input RNA pool
Direction: higher = stronger binding
All sequences stand within: GGGAGUUCUACAGUCCGACGAUC … CAACAGAGGAUUGAGCAUCA
Construct (chain): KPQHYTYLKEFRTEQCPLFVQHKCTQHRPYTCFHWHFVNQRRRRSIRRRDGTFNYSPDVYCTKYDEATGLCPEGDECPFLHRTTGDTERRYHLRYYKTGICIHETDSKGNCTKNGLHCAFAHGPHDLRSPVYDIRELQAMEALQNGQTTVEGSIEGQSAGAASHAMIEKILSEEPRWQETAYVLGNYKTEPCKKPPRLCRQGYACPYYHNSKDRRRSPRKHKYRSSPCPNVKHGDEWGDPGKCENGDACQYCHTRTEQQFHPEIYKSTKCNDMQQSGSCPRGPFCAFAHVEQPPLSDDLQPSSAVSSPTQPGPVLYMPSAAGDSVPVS
With `UUGGAUUCAUUAGCAGAAAGUCCUGAAUCAGAUUUUAUGUCUGCUGUGAAUGAGUUUGUAACCGAAGAAAAUUUGUCGUCUCCUAAUCCUAUAAGUGAUCCACAAAGCCCAGAAAUGAUG` the bound/input enrichment was 0.305 ratio.
With `GAUGAAAUGGGCCUAGGAAAGACUCUUCAAACAAUUUCUCUUCUUGGGUACAUGAAACAUUACCGAAACAUUCCUGGGCCUCAUAUGGUUUUGGUUCCUAAGUCUACAUUACACAACUGG` the bound/input enrichment was 0.198 ratio.
`GGUGCACCUUCAUUUGUUAGAUUAUAUCAGUACCCCAACUUUGCUGGACCUCAUGCAGCUUCCGCUAAUAAAAGUUUCUUUAAGGCAGAUAAAGUUACAAUGCUGUGGAAUAAAAAAGCU` has a bound/input enrichment of 1.21 ratio.
For `UAAGAUUUUGUUUUUUCACUUACAGGCUAUAAAAGAGCAGUACAGGGCCCAGCCCAGCUCCUCCGCCCGCGAAUUGCGAUGGAAUGACAUAGCUGUGGCAAAACUAAGCGGCCGCUGCUC`, the bound/input enrichment was 0.296 ratio.
`GACCCACAGUGGUCUGAGGAACAGCUGAUUGCUGCAAAAUUUUGCUUUGCUGGACUUCUUACCGGCCAGACUGAAGUGGAUAUCAUGAGUCAUGCUACACAGGCUAUAUUUGAAAUACUG` has a bound/input enrichment of 0.186 ratio.
For `CAGGUAUUUAUAGUGAAUCAUACUGUAAAAAAGAGGUAGCAUGAUAUGCUGGAAAGCAUAUCCGACCCGGAGUCAAGACCUGGUUUCUAGUCUUGGUUUUGCCAUUAAUGUGCUGCAUGA`, the bound/input enrichment was 0.214 ratio.
For `UGGGGGAGUUCUAAAAACAGGUGGUAUCUGUUUUUAAUUAUAAAAUAAUAAACAUUUACCACCGAACAGUUACAAAGACAUGAAAAACACCUAAAACUCUACCACACACCUAGCCUUCCC`, the bound/input enrichment was 0.459 ratio.
The bound/input enrichment of `AUAAAGGAGGAAGAAGACGACAUUUCUGACAAGGGCAGUGAUUCUGAAGAGGAAGAAACCAACCGAGAUUCUCAGAGUGAGAAAGAAGAUGGUAGUGACAGGGAGUCUGAUAGAGAGCAA` is reported as 0.629 ratio.
`GCCUGGAGAUUUGCGCCCGCACAUGGUCAUUGGUUUUCCGAAAAGAGAGGGUAAAUUUAUACCGAAAUUUACAGGUAUUUGGGUAGUCAUUUAGACCGAGGGAGACCAGUGUUUCCAUUU` has a bound/input enrichment of 0.207 ratio.
With `UUAAGACUCACAUCAGAUUGGGCGAUGAUGCUCAAGAAACGAAAGUUUUGCUGGAAAAGCACCGAAAAUUUGUUGAUGUUGCACAGAGCACUUAUGACUAUGGCAGGCAGUUGCUACAGG` the bound/input enrichment was 0.242 ratio.
`GUCUACCUUAACCUGGUGCUGGACUAUGUUCCGGAGACAGUGUACAGAGUCGCCAGACACUACCGUCGAGCCAAGCAGACACUCCCUGUGAUCUAUGUCAAGUUGUAUAUGUAUCAGCUG` gave a bound/input enrichment of 0.0448 ratio.

Study 2
Target: Histone acetyltransferase KAT6A, winged helix 1, GST fusion (KAT6A, Homo sapiens, UniProt Q92794, residues 1-85)
Method: protein binding microarray
Form: double-stranded DNA, one strand shown
Medium: in vitro
Tested at: not given
Notes: 8-mer, flanks averaged, mean of 2 arrays, mostly near background
Reference: not given
Direction: higher = stronger binding
Residues (chain): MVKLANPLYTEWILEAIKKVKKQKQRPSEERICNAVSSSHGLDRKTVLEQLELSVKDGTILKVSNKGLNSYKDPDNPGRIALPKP
`CATTGCAG` has an E-score of -0.214.
`ACACGGCG` has an E-score of 0.422.
With `AATGGGAT` the E-score was -0.133.
For `AAATTAAT`, the E-score was -0.115.
With `TCGGGTCA` the E-score was 0.259.
For `CAGCTCGC`, the E-score was -0.0612.
The E-score of `GGCCCGGA` is reported as 0.175.
`GCACCTCC` has an E-score of 0.061.
`ACGCCCAG` gave an E-score of -0.0688.
The E-score of `CCTCCGCC` is reported as 0.324.
With `ATACAAGA` the E-score was -0.0915.
The E-score of `GCTCATAA` is reported as -0.0195.
For `CAGGCCGA`, the E-score was 0.0707.
`CGCCACGA` has an E-score of 0.147.
With `GTTCGATA` the E-score was -0.0154.
For `CTGCCCCC`, the E-score was -0.0497.
With `ACGACTAT` the E-score was -0.0523.
For `ATAAATTA`, the E-score was -0.0599.
With `GAAATTTA` the E-score was -0.207.
`AATGGCAT` has an E-score of -0.0961.
With `GCGAGTAC` the E-score was 0.133.
With `ATCAAACC` the E-score was -0.134.
`ATGAAGAG` has an E-score of -0.15.

Study 3
Target: RNA binding protein fox-1 homolog 2, RRM domain, GST-SBP tag (RBFOX2, Homo sapiens, UniProt O43251-10, residues 100-194)
Method: RNA Bind-n-Seq
Form: RNA
Medium: in vitro
Tested at: 365 nM
Notes: natural RNA segment, single round, ends assumed
Reference: no-protein control
Direction: higher = stronger binding
All sequences stand within: GGGAGUUCUACAGUCCGACGAUC … UGGAAUUCUCGGGUGCCAA
Target sequence (chain): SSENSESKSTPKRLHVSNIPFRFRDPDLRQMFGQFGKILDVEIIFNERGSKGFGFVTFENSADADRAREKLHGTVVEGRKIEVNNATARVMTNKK
For `CUUUCUCCACUUUUCAUCAUUUUGUGUUUGAUGAUUUAAAAGAAGCUUGACUAUUCCUCAGCUCUUGUGCCAAGGAGGGUUUUUUUUUUUUAAGACUCUUAAACUCAAAA`, “RBNS enrichment (R)” read 0.345.
Under “RBNS enrichment (R)”, `UAAAUUACUUUGUGAUUACAAGCAAAUUUUCUAUUUGACAAAGCCCUUGGUGGAGUCCAAAUGAUUUUUCUGUACCAUAUUGUUCUCUUACACAUACGUAUGUUAGGAAA` is recorded as 0.292.
`UUUGAUGGCUUUUUUUGCCUACCAUUUCACAGAGGUUUAGACAGCAGUAGUAGCUCCCUAGGAGAGUUUACUGAUGAAACAGCCUCUGCAAGAUUUUAAAAGUUUUGUUC`: “RBNS enrichment (R)” 0.396.
Under “RBNS enrichment (R)”, `CACUCUCACUCCCUCCAGGAACAAAGAGCAGCUUUUGAGCCCGGACUUGUUGCUGGUUUAAAGGUUAUUGUGGGAAACUGAACUAAAGGAGUUAGCAUCUUUAUUUUUGU` is recorded as 0.313.
`GUGGCGAAUGGCAGCACAGCGCGGUGGCUGGGUCUGCACACUGGCCUCUGCAGCCAGAUUUCUAUAUUGGGAGUUUUUUAAAAAGACAUUUCAUAGCCAACAAGAAUCAG` — result for “RBNS enrichment (R)”: 0.411.
For `AUGUACAGGUUCGAUCGUUUCUAUAGAAAUGGGUUUAUCUAAGAAAAGUCUUGGUUUGUCUUGCUGCUGUAAAAGGCCUUUCCAAACCCCUCCUUUUAUUCCUGUUUCCC`, “RBNS enrichment (R)” read 0.576.
`ACCAUUUGAAGUCAGCUAAUUUGACUUUUAUGGCUCUGUCUUUUUCUUUCAUGAAGAACCCUGUUUAAAACUGGGGUCAUUAACUGUUCUAUUCUAACAAAGUAGUCUUG`: “RBNS enrichment (R)” 0.371.
`GAAGUGGCCAGCAGCAAGUUCUGGUGACGGGACAGAGUGGCCUUGGAUGUCUUUGGUAUUUUCUGUAGUAGAAACUAAAGCAAAGACCACAAGUUUCAGAGCAUGGAGAC` — result for “RBNS enrichment (R)”: 4.81.
`GCACUUUAAGUAUGUGCAGUUUGUUGUAUGUCAAUUAUACCUCAAUAAAUCUGUAAUAAAAAACUAAUUAAACCUUGCAUUAAAAUAAUAUCACAGUAUCAGUGGACUAA` — result for “RBNS enrichment (R)”: 0.514.
For `CCAAGAUACAGCUCAGGCCUUGGCUUCAGAGGGUGCAAGCCCCAAGUCUUGGCAUCUUCCACGUAGUGUUGAGCCUGCAGGUGCACAGAAGUCAAGAACUGAGGUUUGGG`, “RBNS enrichment (R)” read 0.462.
For `ACUGUUAUUUUUUUUUUUUUCACAAUGUGAAACUGAAGGUCAAUAAAUUAUUAGAGAUUUUCUCUUCUUAUGUGUGUGGGUCUUCAUUUGAAUAAGACACAAUUUGAGGC`, “RBNS enrichment (R)” read 0.474.
`CUGCUUCUACCUGGCAGAGAUCACACUAGCCCUGGGCCAUCUCCAUUCCCACGGCAUCAUCUACCGGGACCUCAAGCCUGAGAACAUCAUGCUCAGCAGCCAGGGCCACA` — result for “RBNS enrichment (R)”: 0.351.

Study 4
Target: Interferon regulatory factor 7, full length, phosphomimetic (IRF7, Homo sapiens, UniProt Q92985, residues 1-503, S471D/S472D/S475D/S476D/S477D/S483D/S484D/S487D)
Method: protein-binding microarray
Form: double-stranded DNA, one strand shown
Medium: in vitro
Tested at: 2200 nM top
Notes: 60-bp whole probe
Together with: salmon DNA 0.4 mg/ml
Reference: random background probes
Direction: higher = stronger binding
All sequences stand within: GCCTAGCAC … GTCTTGATTCGCTTGACGCTGCTG
Construct (chain): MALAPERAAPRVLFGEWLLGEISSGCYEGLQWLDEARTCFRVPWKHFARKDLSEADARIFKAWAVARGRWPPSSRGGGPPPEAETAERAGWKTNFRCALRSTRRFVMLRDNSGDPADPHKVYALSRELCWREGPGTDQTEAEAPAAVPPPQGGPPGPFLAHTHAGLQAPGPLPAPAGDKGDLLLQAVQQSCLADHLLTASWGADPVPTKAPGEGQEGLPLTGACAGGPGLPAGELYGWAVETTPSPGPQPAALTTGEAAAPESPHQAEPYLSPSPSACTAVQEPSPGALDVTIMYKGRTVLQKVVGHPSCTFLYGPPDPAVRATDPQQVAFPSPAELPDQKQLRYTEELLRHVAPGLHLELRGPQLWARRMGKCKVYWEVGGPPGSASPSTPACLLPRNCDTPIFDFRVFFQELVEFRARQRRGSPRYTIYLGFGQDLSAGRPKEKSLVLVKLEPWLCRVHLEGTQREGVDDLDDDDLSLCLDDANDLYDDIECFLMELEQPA
`GACGGTATCTTTATCCTGACGTGCTAG`: “fitted relative affinity” 0.684 z-score.
`TTAGGGATCCTACTGCTTTAGTGCTAG`: “fitted relative affinity” 0.019 z-score.
For `GACAGTATCGGGACTGGGGACGTGCTA`, “fitted relative affinity” read -0.27 z-score.
`CTGGAATCAATTTATTGACCGTGCTAG`: “fitted relative affinity” 0.0552 z-score.
`TTAGGTTTCCTACTGCTGTAGTGCTAG`: “fitted relative affinity” 1.22 z-score.
`ATAGGTATCGGGTTTCGGTTAGTGCTA` — result for “fitted relative affinity”: 4.2 z-score.
`GACGGACGGGACTTTCGGGACGTGCTA` — result for “fitted relative affinity”: 2.06 z-score.
`GTCGGTATCCTTATCCTGACGTGCTAG`: “fitted relative affinity” 1.62 z-score.
`TTAGGTATCGGACTGGTTTAGTGCTAG` — result for “fitted relative affinity”: 0.249 z-score.
`TTAGATTTCGGGACTGCATTAGTGCTA` — result for “fitted relative affinity”: 1.16 z-score.
`TTAGGACTCCTTCTCCTTTAGTGCTAG` — result for “fitted relative affinity”: 0.786 z-score.
`TTAGATATCAGACTGCATTAGTGCTAG` — result for “fitted relative affinity”: -0.0896 z-score.
`TTAGATATCGGGTTACGATTAGTGCTA` — result for “fitted relative affinity”: 0.374 z-score.
`TTAGGTATCGGATTCGGTTAGTGCTAG`: “fitted relative affinity” 2.06 z-score.
Under “fitted relative affinity”, `TCATATATCTTATCCTAACTGTGCTAG` is recorded as 1.55 z-score.
Under “fitted relative affinity”, `GACGGTCTCCGTATCGGGACGTGCTAG` is recorded as -0.0156 z-score.
`GACGGACTCGACTTTCGGGACGTGCTA`: “fitted relative affinity” 2.74 z-score.
`TCATTAATAAGGTTTCCAACTGTGCTA` — result for “fitted relative affinity”: 0.082 z-score.
`GACGGACTGCGTTTCGGGACGTGCTAG` — result for “fitted relative affinity”: 0.86 z-score.
For `TTAGGTCTCCTTATTCTTTAGTGCTAG`, “fitted relative affinity” read 0.867 z-score.
For `CTAGGTATCGGGTTTCGGTTAGTGCTA`, “fitted relative affinity” read 3.78 z-score.
